Experimental data gathered from unrelated publications.
Each numbered part is a random draw from the data of one study; scales do not carry over between parts. Values joined by “and” are separate records of one study, mostly repeats; a detail may differ.
Sequence of UniProt P35968 (whole entry, looked up): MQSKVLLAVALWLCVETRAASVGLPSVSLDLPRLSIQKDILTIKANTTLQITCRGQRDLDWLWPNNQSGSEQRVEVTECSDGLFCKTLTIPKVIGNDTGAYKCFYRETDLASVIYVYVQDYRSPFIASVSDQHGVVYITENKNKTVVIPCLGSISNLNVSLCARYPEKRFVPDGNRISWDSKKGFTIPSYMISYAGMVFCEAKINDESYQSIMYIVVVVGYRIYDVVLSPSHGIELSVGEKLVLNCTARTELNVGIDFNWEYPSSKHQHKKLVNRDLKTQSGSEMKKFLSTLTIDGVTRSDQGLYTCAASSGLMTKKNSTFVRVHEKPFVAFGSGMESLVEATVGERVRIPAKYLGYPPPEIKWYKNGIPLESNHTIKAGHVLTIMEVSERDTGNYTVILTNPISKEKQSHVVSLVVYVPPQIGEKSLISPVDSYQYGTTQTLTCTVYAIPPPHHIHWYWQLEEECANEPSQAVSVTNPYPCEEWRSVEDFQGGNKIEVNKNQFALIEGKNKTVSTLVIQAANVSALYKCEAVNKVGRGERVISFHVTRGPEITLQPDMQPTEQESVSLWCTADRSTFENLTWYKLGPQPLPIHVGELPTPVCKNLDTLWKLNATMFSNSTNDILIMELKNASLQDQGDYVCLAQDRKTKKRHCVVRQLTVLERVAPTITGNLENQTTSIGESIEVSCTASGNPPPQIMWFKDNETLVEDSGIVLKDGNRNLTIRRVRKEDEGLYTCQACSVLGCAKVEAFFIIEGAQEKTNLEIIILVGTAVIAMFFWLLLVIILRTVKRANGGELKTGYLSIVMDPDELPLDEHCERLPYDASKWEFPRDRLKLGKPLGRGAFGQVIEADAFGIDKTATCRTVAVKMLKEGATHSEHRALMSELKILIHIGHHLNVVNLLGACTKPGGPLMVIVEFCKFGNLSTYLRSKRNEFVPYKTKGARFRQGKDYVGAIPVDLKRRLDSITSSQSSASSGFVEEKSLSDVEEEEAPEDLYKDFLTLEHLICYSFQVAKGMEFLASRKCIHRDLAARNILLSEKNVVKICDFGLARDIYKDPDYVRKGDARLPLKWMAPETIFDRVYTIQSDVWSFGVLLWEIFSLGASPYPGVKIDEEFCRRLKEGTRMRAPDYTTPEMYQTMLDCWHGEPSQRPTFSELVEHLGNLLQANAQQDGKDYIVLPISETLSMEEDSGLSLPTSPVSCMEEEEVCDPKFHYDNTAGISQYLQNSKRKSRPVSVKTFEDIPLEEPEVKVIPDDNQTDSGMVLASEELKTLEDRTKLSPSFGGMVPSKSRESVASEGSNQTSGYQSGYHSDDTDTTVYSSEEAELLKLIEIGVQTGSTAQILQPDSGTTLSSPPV
Sequence of UniProt Q8N568 (whole entry, looked up): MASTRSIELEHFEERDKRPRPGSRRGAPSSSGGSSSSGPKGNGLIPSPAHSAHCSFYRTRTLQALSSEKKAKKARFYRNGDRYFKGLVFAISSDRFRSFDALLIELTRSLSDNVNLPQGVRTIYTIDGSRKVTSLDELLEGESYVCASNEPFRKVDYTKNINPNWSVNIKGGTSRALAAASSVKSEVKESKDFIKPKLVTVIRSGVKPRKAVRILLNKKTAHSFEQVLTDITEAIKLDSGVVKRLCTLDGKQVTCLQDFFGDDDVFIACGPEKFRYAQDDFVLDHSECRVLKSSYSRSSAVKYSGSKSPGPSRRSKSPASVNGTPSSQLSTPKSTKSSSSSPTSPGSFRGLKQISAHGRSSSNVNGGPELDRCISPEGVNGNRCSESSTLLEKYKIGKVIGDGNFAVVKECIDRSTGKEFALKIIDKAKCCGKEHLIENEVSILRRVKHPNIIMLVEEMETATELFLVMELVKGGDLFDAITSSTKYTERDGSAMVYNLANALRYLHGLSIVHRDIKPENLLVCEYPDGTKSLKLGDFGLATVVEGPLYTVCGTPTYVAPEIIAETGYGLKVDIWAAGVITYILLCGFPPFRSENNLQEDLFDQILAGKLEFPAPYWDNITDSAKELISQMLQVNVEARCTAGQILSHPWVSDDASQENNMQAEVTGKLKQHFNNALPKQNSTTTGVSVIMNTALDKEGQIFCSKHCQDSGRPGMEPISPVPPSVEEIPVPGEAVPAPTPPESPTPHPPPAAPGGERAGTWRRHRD
Sequence of UniProt Q96L34 (whole entry, looked up): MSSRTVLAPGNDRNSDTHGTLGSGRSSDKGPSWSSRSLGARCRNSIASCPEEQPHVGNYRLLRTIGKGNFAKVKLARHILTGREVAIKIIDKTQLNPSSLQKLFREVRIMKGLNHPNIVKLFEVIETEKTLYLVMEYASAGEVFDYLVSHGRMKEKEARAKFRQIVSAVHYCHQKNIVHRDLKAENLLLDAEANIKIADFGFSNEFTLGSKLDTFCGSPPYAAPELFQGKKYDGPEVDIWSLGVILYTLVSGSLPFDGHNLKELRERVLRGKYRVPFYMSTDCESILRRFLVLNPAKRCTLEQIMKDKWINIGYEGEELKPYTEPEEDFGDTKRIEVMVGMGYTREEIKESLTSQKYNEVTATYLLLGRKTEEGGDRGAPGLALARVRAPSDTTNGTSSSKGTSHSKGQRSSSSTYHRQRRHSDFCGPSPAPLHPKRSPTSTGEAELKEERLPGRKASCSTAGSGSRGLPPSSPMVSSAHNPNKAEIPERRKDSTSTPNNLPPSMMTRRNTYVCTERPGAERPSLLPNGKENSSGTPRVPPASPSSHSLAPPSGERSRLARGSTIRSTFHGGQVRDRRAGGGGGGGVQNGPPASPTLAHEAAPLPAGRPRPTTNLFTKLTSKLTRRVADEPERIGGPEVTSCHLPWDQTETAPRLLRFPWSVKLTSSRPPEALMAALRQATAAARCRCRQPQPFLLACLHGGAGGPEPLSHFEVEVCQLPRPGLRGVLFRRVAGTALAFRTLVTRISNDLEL
Sequence of UniProt Q13464 (whole entry, looked up): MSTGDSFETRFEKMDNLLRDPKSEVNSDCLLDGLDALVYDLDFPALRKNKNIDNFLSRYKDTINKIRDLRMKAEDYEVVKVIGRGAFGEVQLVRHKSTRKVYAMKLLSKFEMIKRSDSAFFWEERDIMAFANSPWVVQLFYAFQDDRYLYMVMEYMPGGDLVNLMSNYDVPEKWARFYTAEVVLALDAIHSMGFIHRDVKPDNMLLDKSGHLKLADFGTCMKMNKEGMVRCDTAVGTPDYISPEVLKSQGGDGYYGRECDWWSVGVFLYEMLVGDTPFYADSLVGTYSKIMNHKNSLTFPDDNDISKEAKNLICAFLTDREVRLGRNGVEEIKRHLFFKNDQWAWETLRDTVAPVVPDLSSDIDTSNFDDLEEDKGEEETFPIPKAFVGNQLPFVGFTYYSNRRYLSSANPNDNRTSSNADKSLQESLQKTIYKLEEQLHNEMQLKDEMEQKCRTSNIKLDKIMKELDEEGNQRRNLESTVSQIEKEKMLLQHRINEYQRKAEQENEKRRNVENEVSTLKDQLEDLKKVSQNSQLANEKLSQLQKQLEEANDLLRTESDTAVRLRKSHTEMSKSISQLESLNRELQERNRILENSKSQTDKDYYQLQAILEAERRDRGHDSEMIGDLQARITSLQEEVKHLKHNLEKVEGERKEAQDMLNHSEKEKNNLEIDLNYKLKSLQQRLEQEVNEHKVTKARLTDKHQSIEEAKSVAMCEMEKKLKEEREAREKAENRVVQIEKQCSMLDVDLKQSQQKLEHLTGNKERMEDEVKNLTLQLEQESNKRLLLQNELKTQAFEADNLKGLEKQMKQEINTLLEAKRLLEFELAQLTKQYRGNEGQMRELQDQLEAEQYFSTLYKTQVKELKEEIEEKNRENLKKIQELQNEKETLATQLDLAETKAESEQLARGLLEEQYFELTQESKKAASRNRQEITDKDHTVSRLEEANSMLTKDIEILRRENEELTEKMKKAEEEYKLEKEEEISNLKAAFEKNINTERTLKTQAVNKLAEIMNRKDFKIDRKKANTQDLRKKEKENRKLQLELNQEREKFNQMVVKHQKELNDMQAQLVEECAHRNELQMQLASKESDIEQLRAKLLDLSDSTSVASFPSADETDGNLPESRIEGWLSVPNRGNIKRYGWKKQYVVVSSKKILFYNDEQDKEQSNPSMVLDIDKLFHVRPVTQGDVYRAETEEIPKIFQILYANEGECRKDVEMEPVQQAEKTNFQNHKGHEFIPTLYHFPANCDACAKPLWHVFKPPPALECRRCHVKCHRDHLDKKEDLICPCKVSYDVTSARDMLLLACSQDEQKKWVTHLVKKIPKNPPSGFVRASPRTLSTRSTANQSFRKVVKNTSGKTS
Sequence of UniProt Q9H4B4 (whole entry, looked up): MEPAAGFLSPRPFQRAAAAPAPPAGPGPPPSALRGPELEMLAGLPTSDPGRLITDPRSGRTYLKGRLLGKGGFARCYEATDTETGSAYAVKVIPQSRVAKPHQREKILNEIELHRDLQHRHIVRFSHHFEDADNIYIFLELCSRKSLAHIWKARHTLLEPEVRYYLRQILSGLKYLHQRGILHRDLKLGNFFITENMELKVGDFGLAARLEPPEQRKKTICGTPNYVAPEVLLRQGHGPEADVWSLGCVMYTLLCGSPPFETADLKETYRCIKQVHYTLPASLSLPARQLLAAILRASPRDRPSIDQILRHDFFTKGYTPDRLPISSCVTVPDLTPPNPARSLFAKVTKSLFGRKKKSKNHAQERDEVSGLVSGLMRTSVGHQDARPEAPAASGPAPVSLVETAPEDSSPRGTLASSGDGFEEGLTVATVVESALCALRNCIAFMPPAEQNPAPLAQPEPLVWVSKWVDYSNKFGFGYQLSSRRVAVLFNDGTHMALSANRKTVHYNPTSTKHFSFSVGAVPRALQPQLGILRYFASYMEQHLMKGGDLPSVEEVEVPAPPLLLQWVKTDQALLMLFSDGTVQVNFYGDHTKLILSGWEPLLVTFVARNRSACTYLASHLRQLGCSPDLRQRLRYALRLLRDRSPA

Study 1 — SMILES: Cc1nc2cc3nc(-c4cccs4)cnc3cc2n1C; effect on: enzyme activity; mode: inhibitor; tested at: 0.5 µM; relative to: control
target | remaining activity [%]
KDR (Homo sapiens, UniProt P35968) | 77.4
MAPK11 (Homo sapiens, UniProt Q15759) | 101
ROCK1 (Homo sapiens, UniProt Q13464) | 97.8
MARK2 (Homo sapiens, UniProt Q7KZI7) | 81.4
TXK (Homo sapiens, UniProt P42681) | 102
MARK4 (Homo sapiens, UniProt Q96L34) | 105
DCLK2 (Homo sapiens, UniProt Q8N568) | 104
CDC42BPB (Homo sapiens, UniProt Q9Y5S2) | 100
NEK3 (Homo sapiens, UniProt P51956) | 108
PLK3 (Homo sapiens, UniProt Q9H4B4) | 95.6
PAK3 (Homo sapiens, UniProt O75914) | 98.8
DDR2 (Homo sapiens, UniProt Q16832) | 108
AKT2 (Homo sapiens, UniProt P31751) | 91.5

Study 2 — cell line: HaCaT; tested at: 100 µM; time: 18 h
Compound | viability
O=C1OC2(c3ccc(O)cc3Oc3cc(O)ccc32)c2ccccc21 | 189%
CC(C)NCC(O)c1ccc(O)c(O)c1 (centres unmarked) | 176%
CC(=O)N[C@H]1[C@H]([C@H](O)[C@H](O)CO)OC(C(=O)O)=C[C@@H]1N=C(N)N | 115%
CC[C@]1(O)C[C@@H]2CN(CCc3c([nH]c4ccccc34)[C@@](C(=O)OC)(c3cc4c(cc3OC)N(C)[C@H]3[C@@](O)(C(=O)OC)[C@H](OC(C)=O)[C@]5(CC)C=CCN6CC[C@]43[C@@H]65)C2)C1 | 58.8%
Nc1cc(F)ccc1NC(=O)c1ccc(CNC(=O)/C=C/c2cccnc2)cc1 | 40.3%

Study 3 — effect on: cell-free assay; technique: competition with immobilised ligand; tested at: 1 µM
Compound: O=C(NC[C@@H]1[C@H]2CN(C(=O)OCc3cc(C(F)(F)F)cc(C(F)(F)F)c3)C[C@@H]12)c1ccc2[nH]nnc2c1
target | remaining binding [%]
KDR (Homo sapiens, UniProt P35968) | 96
DCLK2 (Homo sapiens, UniProt Q8N568) | 100
ABL2 (Homo sapiens, UniProt P42684) | 98
CDK2 (Homo sapiens, UniProt P24941) | 100

Single results of other studies
SMILES | test | system | conditions | how to read | endpoint | value
COc1ccc(-c2c(Nc3ccccn3)[nH]c3c(C4=CCCCC4)c(-c4ccccc4)nn3c2=O)cc1 | LC-MS/MS non-compartmental | human, plasma | oral, 200 mg, day -3 of cycle 0, single dose, geometric mean |  | AUC(0-inf) | 52300 ng·h/mL
CC(=O)N[C@@H](Cc1c[nH]c2ccccc12)C(=O)N[C@@H](CCC(=O)C=[N+]=[N-])C(=O)OC(C)C | histopathology, scale 0-6 | mouse C57BL/6 CES1-/-, GI tissue | intravenous, 2.6 mg/kg | direction not given | GI histopathology sum score | 5 and 4
CC(C)n1cnc(-c2ccc(F)cc2)c1-c1ncc(C(=O)Nc2ccc(N3CCN(C)CC3)cc2)[nH]1 |  | IPF patients | 30 mg once daily, adverse event |  | Arrhythmia incidence | 0%
O=C1CCC(N2Cc3cc(C4CCN(Cc5ccccc5)CC4)ccc3C2=O)C(=O)N1 (centres unmarked) |  | ICR mouse, male, plasma | intravenous, 1.0 mg/kg |  | volume of distribution (Vz) | 13.7 L/kg

For quick reference, copied from above (single results of other studies):
SMILES | test | system | conditions | how to read | endpoint | value
CC(=O)N[C@@H](Cc1c[nH]c2ccccc12)C(=O)N[C@@H](CCC(=O)C=[N+]=[N-])C(=O)OC(C)C | histopathology, scale 0-6 | mouse C57BL/6 CES1-/-, GI tissue | intravenous, 2.6 mg/kg | direction not given | GI histopathology sum score | 5 and 4
CC(C)n1cnc(-c2ccc(F)cc2)c1-c1ncc(C(=O)Nc2ccc(N3CCN(C)CC3)cc2)[nH]1 |  | IPF patients | 30 mg once daily, adverse event |  | Arrhythmia incidence | 0%
O=C1CCC(N2Cc3cc(C4CCN(Cc5ccccc5)CC4)ccc3C2=O)C(=O)N1 (centres unmarked) |  | ICR mouse, male, plasma | intravenous, 1.0 mg/kg |  | volume of distribution (Vz) | 13.7 L/kg
